Results of several laboratories.
Each line is one published result; not all experiments were run side by side. Values joined by “and” are separate records of one study, mostly repeats; a detail may differ. ± marks the error that the study gave.
TARDBP aggregated: TAR DNA-binding protein 43, aggregated (TARDBP, Homo sapiens, UniProt Q13148)
Bleomycin hydrolase: Bleomycin hydrolase (Homo sapiens, UniProt Q13867)
CASP8: Caspase-8 (CASP8, Homo sapiens, UniProt Q14790)
CASP10: Caspase-10 (CASP10, Homo sapiens, UniProt Q92851)
ADRA1A: Alpha-1A adrenergic receptor (ADRA1A, Homo sapiens, UniProt P35348)

Compound | target | assay | test system | conditions | scale | quantity | value
C#CCOC(=O)[C@@]1(C)C=C(C(=O)OC(C)(C)C)C(=O)CC1 | MAPK8 (Homo sapiens, UniProt P45983) | enzyme activity, D-SENSOR |  | 0.06097 µM, single replicate |  | normalized kinase activity | 0.932 and 1.14 and 0.874
O=C(COc1cccc(Cl)c1Cl)Nc1cc(C2CC2)nn1CC(F)(F)F | Kir3.1/Kir3.4 (Homo sapiens, UniProt P48544+P48549) | thallium flux, activator | HEK293 |  | relative to: standard compound | Emax | 54%
CC[C@H](C)[C@H](NC(=O)[C@@H](NC(=O)[C@@H](NC(=O)[C@@H](NC(=O)[C@H](CCCCN)NC(=O)[C@H](CCC(=O)O)NC(=O)[C@H](C)N)C(C)C)C(C)C)C(C)C)C(=O)N[C@H](C(=O)N[C@@H](CCCCN)C(N)=O)[C@@H](C)O | MAPT (Homo sapiens, UniProt P10636) | fibril formation, ThT fluorescence |  | 5-fold of tau, at plateau, added: wild-type tau 10 µM, heparin | relative to: untreated | ThT fluorescence | 107 ± 57%
C=CC(=O)N1CCCC(n2c(=O)c3ncccc3n(Cc3ccc(Oc4ccccc4)cc3)c2=O)C1 (centres unmarked) | DPP3 (Homo sapiens, UniProt Q9NY33) | thermal proteome profiling | cell proteome | unit not given | relative to: vehicle | melting temperature shift | -0.455
C[Si](C)(C)C[C@@H](CN)CC(=O)O | L-type calcium channel, rat | binding, radioligand binding |  | 75 µM, added: [3H]diltiazem |  | inhibition | 8%
O=C(CCCc1ccc2c(c1)OCCO2)NCCNC(=O)Cn1c(=O)[nH]c(=O)c2ccccc21 | PARP1 (Homo sapiens, UniProt P09874) | enzyme activity, inhibitor |  | 5 nM |  | inhibition | 0%
Cc1cnc2nc1Nc1cccc(c1)COC/C=C/COCc1cc(ccc1OCCN1CCOCC1)N2 | Non-receptor tyrosine-protein kinase TYK2, JH1 (TYK2, Homo sapiens, UniProt P29597) | cell-free assay |  | 0.1 µM |  | remaining signal | 57%
O=C1c2sc(-c3ccc(N4CCC(CO)CC4)nc3F)nc2CCN1c1cccnc1 | TARDBP aggregated | autoradiography | human, sections, FTLD-TDP, type B | 10 nM | higher = more binding | specific binding | 1.89 a.u. and 4.15 a.u. and 2.56 a.u. and 3.07 a.u. and 3.24 a.u. and 4.78 a.u.
COc1ccc(NC(=O)Nc2ccc3c(c2)C(=O)N(C(C)CO)CC(C)C(CN(C)Cc2ccc4c(c2)OCO4)O3)cc1 (centres unmarked) | IGF1R (Homo sapiens, UniProt P08069) | binding, competition with immobilised ligand |  | 10 µM |  | remaining binding | 88%
CCCCCCCCCCCCC/C=C/C=O | Bleomycin hydrolase | competitive isoTOP-ABPP | proteome, soluble, MDA-MB-231 | 100 µM, 60 min, added: iodoacetamide probe | relative to: DMSO over compound-treated, higher = stronger cysteine blockade | isoTOP-ABPP competition ratio | 1
CCC[C@H](NC(=O)[C@H](CC(=O)O)NC(C)=O)C(=O)N1[C@H](C(=O)N[C@@H](CC(=O)O)C(=O)COC(=O)c2c(C)cccc2C)C[C@@H]2CCCC[C@@H]21 | CASP8 | enzyme activity, inhibitor |  |  |  | kinact/KI | 524000 M⁻¹ s⁻¹
O=C1c2sc(-c3ccc(N4CCC(F)C4)nc3F)nc2CCN1c1cccnc1 (centres unmarked) | TARDBP aggregated | radioligand binding | human, FTLD-TDP type B extract | added: radioligand 37.19 nM |  | specific binding | 3.65 nM and 3.64 nM
CC(=O)N[C@@H](CC(=O)O)C(=O)N[C@@H](CC(C)C)C(=O)N[C@H](C(=O)N[C@@H](C)C(=O)N[C@@H](CC(=O)O)C(=O)COC(=O)c1c(C)cccc1C)[C@@H](C)O | CASP8 | enzyme activity, inhibitor |  |  |  | kinact/KI | 210000 M⁻¹ s⁻¹
C[n+]1cn(C2OC(COP(=O)(O)OP(=O)([O-])C(Cl)(Cl)P(=O)(O)OP(=O)(O)OCC3OC(n4cnc5c(=O)[nH]c(N)nc54)C(O)C3O)C(O)C2O)c2nc(N)nc(O)c21 (centres unmarked) | DCPS (Homo sapiens, UniProt Q96C86) | substrate, HPLC |  | concentration not given, 120 min |  | hydrolysis | 0%
CC[C@H](C)[C@@H]1NC(=O)[C@H](Cc2ccccc2)NC(=O)[C@H](CCC(=O)O)NC(=O)[C@H](CCCNC(=N)N)NC(=O)CNC(=O)[C@@H](NC(=O)[C@H](CC(C)C)NC(=O)[C@H](CCCNC(=N)N)NC(=O)[C@@H](NC(=O)CNC(=O)[C@H](Cc2ccc(O)cc2)NC(=O)[C@@H]2CCCN2C(=O)[C@H](C)NC(=O)[C@H](C)NC(=O)[C@@H](N)CCCNC(=N)N)C(C)C)CSSC[C@@H]2NC(=O)[C@@H](NC(=O)[C@H](CO)NC(=O)[C@H](CO)NC(=O)[C@H](CO)NC(=O)[C@H](CC(C)C)NC(=O)CNC(=O)[C@H](C)NC(=O)[C@H](CC(C)C)NC(=O)[C@@H](NC(=O)[C@@H](N)CC(=O)O)C(C)C)CSSC[C@H](NC(=O)CNC(=O)[C@H](Cc3c[nH]c4ccccc34)NC(=O)[C@H](CCCCN)NC2=O)C(=O)N[C@@H](CO)C(=O)N[C@@H](CCCCN)C(=O)N[C@@H](CO)C(=O)N[C@@H](CCC(=O)O)C(=O)N[C@@H]([C@@H](C)CC)C(=O)N[C@@H](CO)C(=O)N[C@@H](CO)C(=O)N[C@@H](CC(C)C)C(=O)N[C@H](C(=O)O)CSSC[C@@H](C(=O)NCC(=O)NCC(=O)N[C@@H](CO)C(=O)N[C@@H](CCCNC(=N)N)C(=O)N[C@@H](Cc2c[nH]c3ccccc23)C(=O)O)NC(=O)[C@H]([C@@H](C)O)NC(=O)[C@H](Cc2ccccc2)NC(=O)[C@H]([C@@H](C)CC)NC(=O)[C@H](C(C)C)NC(=O)[C@H](C)NC(=O)[C@H](CCCNC(=N)N)NC1=O | RXFP4 (Homo sapiens, UniProt Q8TDU9, W279A) |  |  | W279A mutant, unit not given | relative to: wild type | ΔpEC50 | -0.307 and -0.142 and -0.965
CC[C@H](NC(=O)[C@@H](NC(=O)[C@@H](NC(C)=O)C(C)C)C(C)(C)C)C(=O)N[C@@H](CC(=O)O)C(=O)COC(=O)c1c(C)cccc1C | CASP10 | enzyme activity, inhibitor |  |  |  | kinact/KI | 259000 M⁻¹ s⁻¹
CC(C)C1=CC23CCC4C(C)(C(=O)O)CCCC4(C)C2CC1C(C(=O)O)C3C(=O)O (centres unmarked) | Replication protein A 70 kDa DNA-binding subunit, DBD-F (RPA1, Homo sapiens, UniProt P27694) | probe displacement, fluorescence anisotropy competition |  | 14 µM, added: X-rhodamine-labelled probe peptide 300 nM |  | maximum anisotropy change | 45%
CC(=O)N[C@@H](Cc1c[nH]c2ccccc12)C(=O)N[C@@H](CCC(=O)O)C(=O)N[C@@H](Cc1c[nH]cn1)C(=O)N[C@@H](CC(=O)O)C(=O)COC(=O)c1c(C)cccc1C | CASP8 | inhibitor |  | recombinant enzyme |  | kobs/[I] | 1.33e+06 M⁻¹ s⁻¹
CC1(C)C[C@@H](Nc2cccc(-c3sc(C(=O)O)c(OCC(=O)O)c3Cl)c2)CCN1S(=O)(=O)Cc1cccc(NC(=O)CN2CCC(c3ccc4c(c3)oc(=O)n4C3CCC(=O)NC3=O)CC2)c1 (some centres unmarked) | PTPN2 (Homo sapiens, UniProt P17706, H30A/P33A/R35A) | degrader, bio-layer interferometry |  | 125 nM | higher = more binding | BLI binding response | 0.473 a.u.
CCCCCC(O)/C=C/C=O (centres unmarked) | LONP1 (Homo sapiens, UniProt P36776) | acylphosphate-ATP probe SILAC-ABPP | ZAK-transfected HEK293T | 100 µM, added: acylphosphate-ATP probe | relative to: DMSO over compound-treated | probe labelling ratio | 0.63
CCN(CC)C(CO)c1cccc2c(C)c(C)oc12 (centres unmarked) | LPAR1 (Homo sapiens, UniProt Q92633, W271A) | G-protein dissociation, agonist, NanoBiT | HEK-293T | 1 nM, W271A mutant | relative to: baseline luminescence | fold change | 1.01 and 1.03 and 0.995 and 1.04
CC(=O)N[C@H](C(=O)N[C@@H](CCC(=O)O)C(=O)N[C@@H](C)C(=O)N[C@@H](CC(=O)O)C(=O)COC(=O)c1c(C)cccc1C)C(C)C | CASP8 | enzyme activity, inhibitor |  |  |  | kinact/KI | 2.22e+06 M⁻¹ s⁻¹
CC(O)CNc1cc(=O)oc2ccccc12 (centres unmarked) | ADRA1A | intracellular Ca2+ mobilization, agonist | COS-7 | 500 µM | relative to: 3 µM ionomycin | agonist activity | 13.2 ± 1.16%
Cc1cc(C)cc(COc2cc3c(cc2OCc2cc(C)cc(C)c2)C2CC(O)(Cc4cn(CCOCCOCCNC(=O)CCCCC5SCC6NC(=O)NC65)nn4)CC(C)N2CC3)c1 (centres unmarked) | eIF5-mimic protein 2 (Homo sapiens, UniProt Q7L1Q6) | biotinylated probe pull-down, refers to: BZW1 |  | 10 µM probe | relative to: heavy over light | SILAC ratio | 2.92
O=C(NC[C@@H](Cc1ccc(F)cc1)N1CCC(O)(C(F)(F)F)CC1)C1(c2ccc(Cl)cc2)CCCC1 | TRPA1 (Homo sapiens, UniProt O75762, L881V) | calcium influx, agonist |  |  | relative to: L881V mutant over wild type | EC50 fold change | 149
CC(=O)N1[C@H](C(=O)N[C@@H](CC(C)C)C(=O)N[C@@H](C)C(=O)N[C@@H](CC(=O)O)C(=O)COC(=O)c2c(C)cccc2C)C[C@@H]2CCCC[C@@H]21 | CASP10 | enzyme activity, inhibitor |  |  |  | kinact/KI | 8200 M⁻¹ s⁻¹
CCCCCC=CC=C1C(=O)C=CC1CC=CCCCC(=O)O (centres unmarked) | Bleomycin hydrolase | competitive isoTOP-ABPP | proteome, soluble, MDA-MB-231 | 100 µM, 60 min, added: iodoacetamide probe | relative to: DMSO over compound-treated, higher = stronger cysteine blockade | isoTOP-ABPP competition ratio | 5.9
CC[C@H](NC(=O)[C@H](CC(C)C)NC(=O)[C@H](CC(=O)O)NC(C)=O)C(=O)N[C@@H](CC(=O)O)C(=O)COC(=O)c1c(C)cccc1C | CASP8 | enzyme activity, inhibitor |  |  |  | kinact/KI | 1.15e+06 M⁻¹ s⁻¹
O=c1cc(NCCO)c2ccccc2o1 | ADRA1A | calcium mobilization, agonist | COS-7 | 500 µM | relative to: 3 µM ionomycin | agonist activity | 8.97 ± 2.04%

Some of these lines once more:
Compound | target | assay | test system | conditions | scale | quantity | value
C[Si](C)(C)C[C@@H](CN)CC(=O)O | L-type calcium channel, rat | binding, radioligand binding |  | 75 µM, added: [3H]diltiazem |  | inhibition | 8%
O=C(CCCc1ccc2c(c1)OCCO2)NCCNC(=O)Cn1c(=O)[nH]c(=O)c2ccccc21 | PARP1 (Homo sapiens, UniProt P09874) | enzyme activity, inhibitor |  | 5 nM |  | inhibition | 0%
